Experimental data gathered from unrelated publications.
Protocols differ between the studies behind these lines. ± gives the spread as reported.
HLA class I histocompatibility antigen, A alpha chain allele A*24:02: HLA class I histocompatibility antigen, A alpha chain, allele A*24:02 (Homo sapiens, UniProt P04439)
HLA class I histocompatibility antigen, A alpha chain allele A*02:01: HLA class I histocompatibility antigen, A alpha chain, allele A*02:01 (Homo sapiens, UniProt P04439)

| SMILES | target | assay | system | setting | IC50 [µM] |
| --- | --- | --- | --- | --- | --- |
| CC[C@H](C)[C@H](NC(=O)[C@H](CCCCN)NC(=O)[C@H](CO)NC(=O)[C@H](Cc1ccccc1)NC(=O)[C@H](CCSC)NC(=O)[C@@H](N)CCCCN)C(=O)N[C@@H](CCSC)C(=O)N[C@H](C(=O)N[C@@H](Cc1ccc(O)cc1)C(=O)O)[C@@H](C)O | HLA class I histocompatibility antigen, A alpha chain allele A*24:02 | binding | – | – | 59.9 |
| CCOC(=O)c1c(NCc2ccc(SC)cc2)c2cccc(C)c2[nH]c1=O | Anoctamin-1 (ANO1, Homo sapiens, UniProt Q5XXA6, del476-501) | inhibitor | – | – | 5.24 ± 0.5 |
| Cc1ccc(NC(=O)c2c(Nc3ccccc3)[nH]c(=O)n(O)c2=O)cc1 | Holliday junction resolvase (Fowlpox virus, UniProt Q9J546) | – | – | – | 0.029 |
| CC(=N)NCc1cccc(CN)c1 | Nos2 (Mus musculus, UniProt P29477) | nitric oxide production | 4T1 | added: cytokines | 3.4 ± 1.6 |
| CC[C@H](C)[C@H](NC(=O)[C@H](CCCNC(=N)N)NC(=O)[C@H](CC(=O)O)NC(=O)[C@H](Cc1ccccc1)NC(=O)[C@@H](NC(=O)[C@H](C)N)[C@@H](C)O)C(=O)N[C@@H](Cc1c[nH]cn1)C(=O)N[C@@H](CCC(N)=O)C(=O)N[C@@H](Cc1ccccc1)C(=O)O | HLA class I histocompatibility antigen, A alpha chain allele A*24:02 | binding | – | – | 11.6 |
| CC(C)C[C@H](NC(=O)[C@H](CCC(N)=O)NC(=O)[C@H](Cc1ccccc1)NC(=O)[C@H](C)NC(=O)[C@H](CCCCN)NC(=O)[C@H](CC(=O)O)NC(=O)[C@H](CCC(=O)O)NC(=O)[C@@H](N)CC(C)C)C(=O)O | HLA class I histocompatibility antigen, A alpha chain allele A*02:01 | peptide-MHC binding, radioligand competition binding | – | – | 3.89 |
| COc1cc(Nc2ncc(F)c(Nc3ccc4c(n3)NC(=O)C(C)(C)O4)n2)cc(OC)c1OC | IP3 receptor | – | – | – | > 10 |
| CC[C@H](C)[C@H](NC(=O)[C@@H](NC(=O)[C@H](Cc1c[nH]c2ccccc12)NC(=O)[C@H](CC(=O)O)NC(=O)[C@@H](NC(=O)[C@H](CCCNC(=N)N)NC(=O)[C@@H](N)CCCCN)C(C)C)[C@@H](C)O)C(=O)N[C@@H](CCC(=O)O)C(=O)N[C@@H](Cc1ccc(O)cc1)C(=O)O | HLA class I histocompatibility antigen, A alpha chain allele A*02:01 | peptide-MHC binding, radioligand competition binding | – | – | > 70 |
| CC(=O)c1c(C)c2cnc(Nc3ccc(C4CCN(CCS(C)(=O)=O)CC4)cn3)nc2n(C2CCCC2)c1=O | Cytochrome P450 3A4 (CYP3A4, Homo sapiens, UniProt P08684) | enzyme activity, inhibitor | human liver microsomes | added: midazolam substrate | 6.18 |
| C[C@]12CC[C@@H](O)C[C@@H]1CC[C@@H]1[C@@H]2CC[C@]2(C)[C@@H]([N+](=O)[O-])CC[C@@H]12 | GABAA receptor, rat | radioligand binding | rat cerebral cortex homogenate | added: 6.25 µM GABA | 0.0122 ± 0.0001 |
| C[C@H]1CN(c2n[nH]c3nc(N[C@H]4CC[C@H](NS(=O)(=O)CCC(F)(F)F)CC4)ncc23)CCO1 | Cysteine--tRNA ligase, cytoplasmic (Homo sapiens, UniProt P49589) | biochemical | – | – | ≥ 20 |
| COc1ccc(S(=O)(=O)Oc2ccc3c(c2)Oc2nc4c(c(N)c2C3c2cccc(OC)c2)CCCC4)cc1 (stereo not shown) | Beta-secretase 1 (BACE1, Homo sapiens, UniProt P56817) | enzyme activity, inhibitor | – | – | 1.47 |
| COc1ncccc1NS(=O)(=O)c1ccc(S(=O)(=O)F)c2c1CCCC2 | RALB (Homo sapiens, UniProt P11234) | – | – | – | 82 |
| CNC(C)Cc1ccc2nonc2c1 (stereo not shown) | SLC22A3 (Homo sapiens, UniProt O75751) | – | – | – | 2330 ± 889 |
| CSCC[C@H](NC(=O)[C@@H](N)CCCNC(=N)N)C(=O)N[C@@H](Cc1ccccc1)C(=O)NCC(=O)N1CCC[C@H]1C(=O)N[C@H](C(=O)N[C@@H](CCC(N)=O)C(=O)N[C@H](C(=O)N[C@@H](Cc1ccc(O)cc1)C(=O)O)[C@@H](C)O)C(C)C | HLA class I histocompatibility antigen, A alpha chain allele A*02:01 | binding | – | – | 16.6 |
| C#CCCCCCCCCCNC(=O)Oc1cccc(-c2cccc(C(N)=O)c2)c1 | Faah (Rattus norvegicus, UniProt P97612) | inhibitor | – | added: FP-biotin 1 µM | < 0.005 |
| CSCC[C@H](NC(=O)[C@H](CC(C)C)NC(=O)[C@@H](N)CCCNC(=N)N)C(=O)N[C@@H](CC(=O)O)C(=O)N[C@@H](CCCCN)C(=O)N1CCC[C@H]1C(=O)N[C@@H](Cc1c[nH]cn1)C(=O)N[C@@H](CO)C(=O)N[C@@H](Cc1ccc(O)cc1)C(=O)O | HLA class I histocompatibility antigen, A alpha chain allele A*02:01 | binding | – | – | 7.41 |
| COc1ncccc1-c1cnn2ccc(N3CCN(C(=O)OC(C)C)CC3)nc12 | ADRA1B (Homo sapiens, UniProt P35368) | liability screen | – | – | > 30 |
| OC[C@H]1O[C@@H](OCCc2ccccc2)[C@H](O)[C@@H](O)[C@H]1O | lacI (Escherichia coli, UniProt P03023, D149C/N125C) | inhibitor | – | – | 620 |
| C[C@]12CC[C@H](O)CC1=CC[C@@H]1[C@@H]2CC[C@]2(C)C(n3cnc4ccccc43)=CC[C@@H]12 | Sulfotransferase 2B1 (Homo sapiens, UniProt O00204, S348D) | cholesterol sulfonation, DESI-MS | – | added: cholesterol | 39 ± 6 |
| CC[C@H](C)[C@H](NC(=O)[C@@H](N)CCCNC(=N)N)C(=O)N[C@@H](Cc1ccc(O)cc1)C(=O)NCC(=O)N1CCC[C@H]1C(=O)N1CCC[C@H]1C(=O)N[C@@H](Cc1c[nH]cn1)C(=O)N[C@@H](CCC(N)=O)C(=O)N[C@@H](Cc1ccccc1)C(=O)O | HLA class I histocompatibility antigen, A alpha chain allele A*24:02 | binding | – | – | 1.14 |
| CC(C)C[C@H](NC(=O)[C@@H](N)CCC(N)=O)C(=O)N[C@H](C(=O)N1CCC[C@H]1C(=O)N[C@H](C(=O)N[C@@H](Cc1c[nH]c2ccccc12)C(=O)N[C@@H](CCCNC(=N)N)C(=O)N[C@H](C(=O)N[C@@H](Cc1ccc(O)cc1)C(=O)O)C(C)C)[C@@H](C)O)[C@@H](C)O | HLA class I histocompatibility antigen, A alpha chain, allele A*26:01 (Homo sapiens, UniProt P04439) | peptide-MHC binding, radioligand competition binding | – | – | > 70 |
| CC[C@H](C)[C@H](NC(=O)[C@H](Cc1c[nH]cn1)NC(=O)[C@H](CCCCN)NC(=O)[C@H](Cc1ccc(O)cc1)NC(=O)[C@@H](NC(=O)[C@@H](N)Cc1c[nH]cn1)C(C)C)C(=O)N[C@@H](CC(C)C)C(=O)N[C@H](C(=O)N[C@@H](Cc1ccccc1)C(=O)O)[C@@H](C)O | HLA class I histocompatibility antigen, A alpha chain, allele A*01:01 (Homo sapiens, UniProt P04439) | binding | – | – | 76.1 |
| CCCc1cc(C(=O)OCC)c(NC(=O)C2CCN(C(C)=O)CC2)s1 | DNA repair protein REV1, C-terminal domain (Homo sapiens, UniProt Q9UBZ9) | REV1 C-terminal domain-RIR interaction, inhibitor, fluorescence polarization displacement | – | – | 2.1 |
| CC[C@H](C)[C@H](NC(=O)[C@H](Cc1c[nH]cn1)NC(=O)CNC(=O)[C@H](Cc1ccc(O)cc1)NC(=O)[C@H](CCC(N)=O)NC(=O)[C@@H](N)Cc1c[nH]cn1)C(=O)N[C@@H](CC(C)C)C(=O)N[C@@H](CCC(N)=O)C(=O)N[C@@H](Cc1ccc(O)cc1)C(=O)O | HLA class I histocompatibility antigen, A alpha chain allele A*02:01 | binding | – | – | 16.6 |
| C[C@H]1COCCN1c1nc(NCc2cccnc2C(F)(F)F)c2cccnc2n1 | human L-type calcium channel | – | – | verapamil site | > 100 |
| CSCC[C@H](NC(=O)[C@@H](N)Cc1ccc(O)cc1)C(=O)N[C@@H](CC(=O)O)C(=O)N[C@@H](CO)C(=O)N[C@@H](Cc1c[nH]cn1)C(=O)NCC(=O)N[C@@H](Cc1ccccc1)C(=O)N[C@@H](CO)C(=O)N[C@@H](Cc1ccccc1)C(=O)O | HLA class I histocompatibility antigen, A alpha chain allele A*02:01 | binding | – | – | 0.144 |
| COc1c(Br)cccc1C(=O)Nc1ccc(Sc2nc3ccccc3s2)cc1 | Chaperonin GroEL, with GroES (groEL, Escherichia coli, UniProt P0A6F5) | GroEL/ES-mediated refolding, inhibitor | – | added: denatured rhodanese substrate | > 250 |

Some of these lines once more:
| SMILES | target | assay | system | setting | IC50 [µM] |
| --- | --- | --- | --- | --- | --- |
| CCCc1cc(C(=O)OCC)c(NC(=O)C2CCN(C(C)=O)CC2)s1 | DNA repair protein REV1, C-terminal domain (Homo sapiens, UniProt Q9UBZ9) | REV1 C-terminal domain-RIR interaction, inhibitor, fluorescence polarization displacement | – | – | 2.1 |
| C#CCCCCCCCCCNC(=O)Oc1cccc(-c2cccc(C(N)=O)c2)c1 | Faah (Rattus norvegicus, UniProt P97612) | inhibitor | – | added: FP-biotin 1 µM | < 0.005 |
| COc1cc(Nc2ncc(F)c(Nc3ccc4c(n3)NC(=O)C(C)(C)O4)n2)cc(OC)c1OC | IP3 receptor | – | – | – | > 10 |
| CSCC[C@H](NC(=O)[C@@H](N)CCCNC(=N)N)C(=O)N[C@@H](Cc1ccccc1)C(=O)NCC(=O)N1CCC[C@H]1C(=O)N[C@H](C(=O)N[C@@H](CCC(N)=O)C(=O)N[C@H](C(=O)N[C@@H](Cc1ccc(O)cc1)C(=O)O)[C@@H](C)O)C(C)C | HLA class I histocompatibility antigen, A alpha chain allele A*02:01 | binding | – | – | 16.6 |
